Published values pooled from the literature.
Every numbered part comes from another study and shows a few of its results, in no order. Positions count from the first letter of the parent shown.

Sample 1
Target: RNA binding protein fox-1 homolog 2, RRM domain, GST-SBP tag (RBFOX2, Homo sapiens, UniProt O43251-10, residues 100-194)
Method: RNA Bind-n-Seq
Form: RNA
Matrix: in vitro
Tested at: 365 nM
Setting: natural RNA segment, single round, ends assumed
Reference: no-protein control
Reading: higher = stronger binding
Shared flanks, not repeated: GGGAGUUCUACAGUCCGACGAUC … UGGAAUUCUCGGGUGCCAA
Target sequence (chain): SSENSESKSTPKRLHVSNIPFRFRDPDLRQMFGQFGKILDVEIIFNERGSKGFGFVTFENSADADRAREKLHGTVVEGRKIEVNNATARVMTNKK
Sequence	RBNS enrichment (R)
UUAUAUCUAAUUUGUACCCUUGUUGAAAUUGUCAUUUAUACAAUAAAGCGAAUUCUUUAUCUCUAAAUAUGAUGAAGUUUUCUUAACAUGAUAAUUUUUAGUUAAAAUCU	0.695
UGCUUUCAAACAUAGAUAAAGCAUGAUAAAGAUUAUUAUUUAAGAUAUACUUGUAUUUAUACCUCAGAUAUUCUUUUGGGUUUUGUACCUCAAGGCUUUUUUCUUCUUAU	0.604
AAGAUAAACCAUUUGGAUAUAUUUGAUUUUGUCAUAACAUUUGUAAAGUAUAUGUUUCUCAUGAGACUGAGGGUUUUAUUUUUAAAAUCCCCUUACAUUUCUAGCACACC	0.42
CCAGUCACCCAGGGAAUAACAACUUAAGCUGUAGUUAGAUAACACCUAGUGAUUAAUUGGCUGAGAAAACCCUGGAGUGGAGGGAGGCUCAGAGAUACUGAUAUGGAUGU	0.561
UGCUCCCAGAUGGCGGUCUCCUGGCAGCCUCCCCUCAGUCUUCCUCCACCCGCUCUUCCUUCCCAGCCUGCCUGCAUGCAUGUGCACCCUUGGUCUUCGCUCCAUCGCCU	19.3
CAUUCAAAGGUUCUUGAGACUCUUGAUAUUUCUGUCUUCUCCUUGUGCUUUCCUAUGGAAAAAAUACAUAUAUAGUUUAGUUUGUUAGACGUGAGUUAUCCAAGUAUUUA	0.488
AUCCUGACUCGUGUCUUUUUACCCCCAAGAUAUCUGUCUUCAGUAGCGACUGAAUCUGCCACUCUCAGAAUAAGUUCCUUGCAUUUAUUCCAAAUAAUCUCGUUUACUCU	0.639
UAUAUUAAAAAAAAAGUUUUGUAUGUUUUUAUUACUUUAAUUAUUGUUAUAAAAAGCCUGCCAUUUUUAAUAUGUGGUUUGGGGAAUUUUGUUUGUUUUUCCUGUUUGGG	6.35
GACGCUCUCAUUAAAAUCUAUGCAGCCAAGCUCGGCACUUUGUAGCAGCCGGCCUUGCGAAGCCUCCUCAGCUCGGGGGGCCGGGGACCCAGUGAGCCGAGAGGCCCUCU	0.833
UGGACCUUGUGGCCAGGUGCUCUUCCCGAGCCACAGGUGUUCUGUGAGCUUGCUUGUGUGUGUGUGCGCGUGUGCGUGUGUUGCUCCAAUAAAGUUUGUACACUUUCUGA	0.448
GUAAUUCUUUUGUACAUUGAAAUGAGGGGCUUGGUUUAAAAAAAGACCUUUCCCUCUCCCUGCCCCUAGAACAACCAGUAUUAGAAGGUGCCACCAUUGGUGCUGCCUUC	0.257
CAUGUAAGUGUUAAGUUUUUAAUCUGGGAGCAGGGCAUAGGAAGAAAAUGUCAGUAGUGCUAAUGCAUUUUGCACUAGAACGCUUCGGGAAAAUAUUCAUGCUUGCCAUC	0.976

Sample 2
Target: Centromere-binding protein 1, full length, N-terminal tag (CBF1, Saccharomyces cerevisiae, UniProt P17106, residues 1-351)
Sequence of UniProt P17106 (whole entry, looked up): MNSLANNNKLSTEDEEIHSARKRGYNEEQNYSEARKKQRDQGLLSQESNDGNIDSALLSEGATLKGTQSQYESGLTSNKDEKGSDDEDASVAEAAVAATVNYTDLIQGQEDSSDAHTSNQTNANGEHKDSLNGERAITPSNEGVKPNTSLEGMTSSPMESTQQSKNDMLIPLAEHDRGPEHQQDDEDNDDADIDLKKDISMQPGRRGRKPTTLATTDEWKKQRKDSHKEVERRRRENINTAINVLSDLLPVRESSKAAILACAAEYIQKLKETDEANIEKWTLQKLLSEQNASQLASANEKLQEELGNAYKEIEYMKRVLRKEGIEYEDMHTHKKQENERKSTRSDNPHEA
Method: protein-binding microarray
Form: double-stranded DNA, one strand shown
Matrix: in vitro
Tested at: 0.8 µM
Setting: whole 60-bp probe, no competitor
Reading: higher = stronger binding
Shared flanks, not repeated: … GTCTTGATTCGCTTGACGCTGCTG
Sequence	fluorescence intensity [a.u.]
CTAGTGCTCTTGGATCACGATCCCTCACTTGTATTC	659
CTAATGAAACGACACCACCTCCCACGATTGGGGTTC	488
GAAACGTACTTATAAAACGTGTAAAAACTTGCTTAG	568
GAAGGGAGACACAAACACGAGGTAAGTCTCAAATAG	580
GAAATATAAAGGGTACTCGTGCAGACGGACATCTAG	609
GAATTACACATAAAGTACGTGCCATTTATTTATTAG	559
GAATGTCTTTTTCGCCACATGTAATATCTGTAGTAG	680
GAAAGTCAATGGCATCATGCGGGAACGTGCAGTTAG	679
GAACCGGGAAGGTAACACATGAATATGCTGTGTTAG	528
CTACTTACAGGTTTTCTCGTGAGGGAAGTGGAATTC	536
CTAGTCCGCGACAATCACGGGCCTATTTCTACTTTC	713
GAAGCTGGCTTTGGTGGTGTTTTGCCAGATATATAG	508
CTATTACTGTTTCAACTGATGATACTGATATGCTTC	538
GAAAATTATTTCTTTCACATGATTAAAATTATATAG	2320
CTAGGACGGCGGCGTCACCCCAACGCAAAAGAGTTC	516
GAACACTGTCTATTCCTCGTGGACCCTCTTTCGTAG	563
GAAAATTCAATTCACGTGAGGACAATAACACTATAG	7350
CTAGTTAAGAATGGTCACGTCTTCCTTTGGCTTTTC	960
CTAATAAAAAAAGACTACGTGGGTGTTTACCTATTC	485
CTAAAACGGAGCAGTCATATGATCAAAATACAGTTC	2230
GAAACGCTTACTGTGATCATTTGTTATAAGTGCTAG	545
CTACTGACGCCTTCGCACGCGTCAATGAAAAGGTTC	568

Sample 3
Target: Interferon regulatory factor 5, full length, phosphomimetic (IRF5, Homo sapiens, UniProt Q13568-2, residues 1-514, K96S/S451D/S453D/S456D/S462D)
Method: protein-binding microarray
Form: double-stranded DNA, one strand shown
Matrix: in vitro
Tested at: 250 nM
Setting: 60-bp whole probe
Together with: salmon DNA 0.4 mg/ml
Reference: random background probes
Reading: higher = stronger binding
Shared flanks, not repeated: GCCTAGCAC … GTCTTGATTCGCTTGACGCTGCTG
Sequence	log fluorescence [z-score]
GACGGAATGGGTCTCGGGACGTGCTAG	-0.327
AGCAAAAATGATTGGTTGAAGTGCTAG	-0.122
GACGGACAGGGTCTCGGGACGTGCTAG	-0.837
GACGAACTGGTGTTTCGAGACGTGCTA	1.31
GAAGATATCAGTATCGAGACGTGCTAG	2.99
GAGGGTTCCGGTTTCGGGACGTGCTAG	3.99
GAGGGACTGGGACTGGGGACGTGCTAG	-0.668
TTAGGTTTCGACACTGTGTTAGTGCTA	6.3
TTAGGTATGGGACTGGGTTAGTGCTAG	-0.297
GACGGTTTTCTTCTCCTGACGTGCTAG	0.727
GGCGATATCGGGTATCGAGACGTGCTA	2.69
TTAGGACTGATTCTCCTTTAGTGCTAG	-0.0124
TTAGGAGTGGGGACTGGGTTAGTGCTA	-0.347
GACGGTTGCGACTTTCGGGACGTGCTA	4.92
TAAGATTTCGGGACTGGATTAGTGCTA	1.66
GACGAGTTCGGGTATCGAGACGTGCTA	0.657
ATGACCTCACTGCCTGACACGTGCTAG	-0.253
CTAGATTCCAGTTTCGATTAGTGCTAG	9.82
TCAAGTCTGAGATCCAGACTGTGCTAG	-0.329
AAGTGTTTGGTGTCTTTTGTGGTGCTA	0.0123
GACGGTCTCCTTTTCCTTACGTGCTAG	0.4
TCATCTCTGCTTGTGTCACTGTGCTAG	0.362
TCATTTTTCTAAGTAAAACTGTGCTAG	0.976
CTGGTTTTTACTTTCTGAATGTGCTAG	3.14
TTTGGTATCGACTATCGGTTAGTGCTA	8.92

Sample 4
Target: ABI1, truncated, D143A, DHFR fusion (Arabidopsis thaliana)
Method: DHFR PCA, deep sequencing
Matrix: yeast
Setting: methotrexate growth selection, single substitutions
Together with: (+)-ABA 1.4 µM
Reference: wild-type fitted maximum
Reading: higher = stronger binding
Starting sequence: PYL1, truncated, DHFR fusion (Arabidopsis thaliana); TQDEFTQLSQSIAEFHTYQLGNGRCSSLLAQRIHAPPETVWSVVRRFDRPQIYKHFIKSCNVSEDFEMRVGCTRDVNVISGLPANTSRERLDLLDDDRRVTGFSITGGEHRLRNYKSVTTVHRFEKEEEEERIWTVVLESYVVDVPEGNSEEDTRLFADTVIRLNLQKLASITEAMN
Variant	relative binding score [%]
Y18C	9.39
D153Q	-1.72
H16G	-0.672
T106W	24.9
A13V	32.4
S26T	54.1
L8R	-1.11
T17C	6.83
A30H	54.1
H122G	-3.99
N61M	52.7
V40N	-47.5
V100S	1
H110Y	10.9
I52A	60
H16K	-10.2
V136M	65.2
E64A	62.2
R32S	36

Sample 5
Target: CCND3, cyclin fold, Cln2 fusion (human)
Method: yeast growth competition, sequencing
Matrix: yeast
Setting: weak parent motif
Reference: not given
Reading: higher = stronger binding
Starting sequence: CDKN1A docking peptide (human); SKACRRLFGPVDS; partner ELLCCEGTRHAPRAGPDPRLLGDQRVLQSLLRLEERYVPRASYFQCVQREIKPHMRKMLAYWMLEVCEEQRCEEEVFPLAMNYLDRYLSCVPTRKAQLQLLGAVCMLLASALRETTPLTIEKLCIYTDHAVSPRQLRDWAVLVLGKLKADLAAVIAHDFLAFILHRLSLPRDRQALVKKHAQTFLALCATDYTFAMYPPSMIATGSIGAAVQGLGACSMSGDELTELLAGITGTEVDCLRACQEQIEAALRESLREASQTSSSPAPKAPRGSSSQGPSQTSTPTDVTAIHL
Variant	normalised enrichment score
A3L	-0.286
V11R	0.564
R5Y	0.126
F8H	0.608
P10Q	-0.274
C4W	-0.133
G9F	0.547
P10E	0.385
R6L	0.403
F8S	0.371
K2V	0.516
R5T	0.103
R5K	0.274
D12P	-0.0157
P10T	0.174
V11Y	0.342
K2T	0.592
R6A	0.104
